# Assay results pooled from the literature.
# Lines come from different studies, so protocols differ. Numbers after ± are the reported error.
# Organism: Bacillus cereus
Compound,strain,dose,time,temperature,notes,quantity,value
CCCCCCCCCCCCCCCCCCCCCCSCC1OC(OC2C(N)CC(N)C(OC3OC(CN)C(O)CC3N)C2O)C(O)C(N)C1O (stereo not shown),ATCC 11778,,,,,MIC,> 150 µg/mL
N=C(N)NCCC[C@@H]1NC(=O)[C@H](CCCNC(=N)N)NC(=O)[C@H](CCCNC(=N)N)NC(=O)[C@H](CCCNC(=N)N)NC(=O)[C@H](Cc2c[nH]c3ccccc23)NC(=O)[C@H](CCCNC(=N)N)NC(=O)[C@H](CCCNC(=N)N)NC(=O)[C@@H](N)CCn2cc(nn2)C[C@@H](C(N)=O)NC1=O,,,24 h,37 °C,,MIC,125 µg/mL
CC(CCC(=O)[O-])C1CCC2C3CCC4CC(O)CCC4(C)C3CC(O)C12C.C[N+](C)(C)CC(O)CC(=O)O (stereo not shown),TISTR 035,1 mg per disc,18 to 24 h,37 °C,6 mm disc,inhibition zone diameter,13.6 ± 1.4 mm
N=C(N)NCCC[C@@H]1NC(=O)[C@H](CCCNC(=N)N)NC(=O)[C@H](CCCNC(=N)N)NC(=O)[C@H](CCCNC(=N)N)NC(=O)[C@H](Cc2c[nH]c3ccccc23)NC(=O)[C@H](CCCNC(=N)N)NC(=O)[C@H](CCCNC(=N)N)NC(=O)[C@@H](N)CCCn2cc(nn2)C[C@@H](C(N)=O)NC1=O,,,24 h,37 °C,,MIC,125 µg/mL
CC(=O)NC1C(OC2OC(CC(O)C3OC(n4ccc(=O)[nH]c4=O)C(O)C3O)C(O)C(O)C2NC(=O)C=CCCCCCCCCCC(C)C)OC(CO)C(O)C1O (stereo not shown),ATCC 1479,,,,,MIC,> 50 µg/mL
CCCCCCCCCCCC[S+]([O-])CC1OC(OC2C(N)CC(N)C(OC3OC(CN)C(O)CC3N)C2O)C(O)C(N)C1O (mixture of isomers),ATCC 11778,,,,,MIC,9.4 µg/mL
CC(/C=C/C(O)=C1/C(=O)CNC1=O)=C\[C@@H](C)[C@H]1O[C@@]2(C)O[C@H](C(=O)[C@@H]3O[C@@]32CO)[C@@H]1C,,,,,,MIC,3.13 µM
CCCCCCSCC1OC(OC2C(N)CC(N)C(OC3OC(CN)C(O)CC3N)C2O)C(O)C(N)C1O (stereo not shown),ATCC 11778,,,,,MIC,> 150 µg/mL
CC(=O)NC1C(OC2OC(CC(O)C3OC(n4ccc(=O)[nH]c4=O)C(O)C3O)C(O)C(O)C2NC(=O)COCc2ccc(N3CCC(Oc4ccc(OC(F)(F)F)cc4)CC3)cc2)OC(CO)C(O)C1O (stereo not shown),ATCC 1479,,,,,MIC,> 50 µg/mL
CN1CC(=O)N=C1N.C[C@H](CCC(=O)O)[C@H]1CC[C@H]2[C@@H]3CC[C@@H]4C[C@H](O)CC[C@]4(C)[C@H]3C[C@H](O)[C@]12C,TISTR 035,1 mg per disc,18 to 24 h,37 °C,6 mm disc,inhibition zone diameter,14.7 ± 0.5 mm
